Experimental data of several laboratories.
Lines come from different studies, so protocols differ. Several values in a cell are separate wells, animals, samples, runs or records. Numbers after ± are the reported error.
SLC6A3: Sodium-dependent dopamine transporter (SLC6A3, Homo sapiens, UniProt Q01959)
Sequence of UniProt Q01959 (whole entry, unmodified, looked up): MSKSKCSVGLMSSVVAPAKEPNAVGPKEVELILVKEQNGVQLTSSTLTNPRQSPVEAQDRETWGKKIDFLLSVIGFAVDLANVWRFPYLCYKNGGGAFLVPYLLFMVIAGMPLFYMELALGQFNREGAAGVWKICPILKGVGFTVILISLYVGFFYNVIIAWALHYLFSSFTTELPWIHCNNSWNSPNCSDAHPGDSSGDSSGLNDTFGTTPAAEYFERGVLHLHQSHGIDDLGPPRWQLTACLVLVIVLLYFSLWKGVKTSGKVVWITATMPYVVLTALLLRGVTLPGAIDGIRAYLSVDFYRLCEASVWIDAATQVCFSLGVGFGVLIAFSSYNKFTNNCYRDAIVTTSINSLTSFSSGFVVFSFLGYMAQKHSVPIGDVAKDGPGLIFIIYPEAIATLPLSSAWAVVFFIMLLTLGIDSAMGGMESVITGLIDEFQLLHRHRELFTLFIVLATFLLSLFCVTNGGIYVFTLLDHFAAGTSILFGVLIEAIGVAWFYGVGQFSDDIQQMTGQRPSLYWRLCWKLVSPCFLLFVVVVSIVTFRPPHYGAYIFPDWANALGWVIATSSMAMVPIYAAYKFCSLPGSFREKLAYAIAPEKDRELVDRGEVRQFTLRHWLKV

For c1ccc(C(NCCNC(c2ccccc2)c2ccccc2)c2ccccc2)cc1, the inhibition was 88% (SLC6A3; binding; 10 µM, Eurofins selectivity panel).
For COC(=O)C(c1ccccc1)C1CCCCN1 (centres unmarked), “maximal inhibition rate (kapp)” read 2.2 s⁻¹ (SLC6A3; transporter current, inhibitor; with: dopamine 30 µM).
The IC50 of C[C@H]1COCCN1c1nc(NCc2cccnc2C(F)(F)F)c2cccnc2n1 is reported as over 100 µM (SLC6A3; binding; CEREP panel).
CCC[C@H](C(=O)c1ccc(C)cc1)N1CCCC1 — result for “maximal inhibition rate (kapp max)”: 3.49 s⁻¹ (SLC6A3; DAT-mediated current, inhibitor, electrophysiology; human DAT-expressing cells; 100 µM, with: 30 µM dopamine).
CCN(CC)CCCC[C@H](NC(=O)[C@H](CC(C)C)NC(=O)[C@H](C)NC(=O)[C@H](Cc1ccccc1)NC(=O)c1ccc(C(C)(C)C)cc1)C(=O)N[C@@H](CO)C(=O)OC has a specific binding of 92.7% (SLC6A3; antagonist, radioligand binding; 10 µM; baseline: control binding).
Under “maximal inhibition rate (kapp max)”, CCCC(C(=O)c1ccc2c(c1)OCO2)N1CCCC1 (centres unmarked) is recorded as 4.5 s⁻¹ (SLC6A3; DAT-mediated current, inhibitor, electrophysiology; human DAT-expressing cells; 100 µM, with: 30 µM dopamine).
For COC(=O)[C@H]1[C@@H](OC(=O)c2ccccc2)C[C@@H]2CC[C@H]1N2C, the remaining current was 24.6 ± 0.5% (SLC6A3; endogenous leak current, inhibitor, two-electrode voltage clamp; Xenopus oocytes expressing hDAT; 0.01 to 30 µM, -60 mV; baseline: dopamine pre-pulse peak current).
The Hill coefficient of c1ccc2sc(C3(N4CCCCC4)CCCCC3)cc2c1 is reported as 1 (SLC6A3; binding, antagonist, radioligand binding).
COC(=O)[C@H]1[C@@H](OC(=O)c2ccccc2)C[C@@H]2CC[C@H]1N2C gave a Hill coefficient of -1.2 ± 0.1 (SLC6A3; HEK293-hDAT).
With CN[C@@]1(c2ccccc2Cl)CCCCC1=O the inhibition was 13% (SLC6A3; radioligand binding, antagonist, radioligand displacement; 30 µM).
Under “time to steady-state inhibition”, CCCC(C(=O)c1ccc2c(c1)OCO2)N1CCCC1 (centres unmarked) is recorded as 15 s (SLC6A3; dopamine-induced inward current, inhibitor, two-electrode voltage clamp; Xenopus oocytes expressing hDAT; 10 µM, holding potential -60 mV, with: dopamine 5 µM).
For c1ccc2cc([C@]34CNC[C@H]3C4)ccc2c1, the dopamine uptake was 107% and 66.6% and 102% (Sodium-dependent dopamine transporter (SLC6A3, Homo sapiens, UniProt Q01959, F326A); inhibitor, [3H]dopamine uptake; 100 nM, F326A mutant; baseline: no inhibitor).
O=c1ccc2ccccc2o1 has an inhibition of -0.14% (SLC6A3; antagonist radioligand binding; 10 µM, SafetyScreen44).
CCC(CNc1nc(-c2cn3ccnc3cc2C)nc2ccccc12)c1ccccc1 (centres unmarked) gave an inhibition of 66.7 ± 8.1% (SLC6A3; [3H]WIN35,428 binding; CHO-K1, transfected; 10 µM).

Some of these lines once more:
The Hill coefficient of c1ccc2sc(C3(N4CCCCC4)CCCCC3)cc2c1 is reported as 1 (SLC6A3; binding, antagonist, radioligand binding).
With CN[C@@]1(c2ccccc2Cl)CCCCC1=O the inhibition was 13% (SLC6A3; radioligand binding, antagonist, radioligand displacement; 30 µM).
